# Assay results gathered from unrelated publications.
# Lines come from different studies, so protocols differ. “And” joins repeats or separate records; there may be more than shown. ± marks the error that the study gave.
Structure (SMILES),tested on,assay,conditions,scale,measurement,value
CCCNC(=O)[C@H]1O[C@@H]1C(=O)N[C@H](C(=O)N1CCC[C@H]1C(=O)OCC1=C2C(C)=CC(C)=[N+]2[B-](C)(C)n2c(C)cc(C)c21)[C@@H](C)CC,MCF-10A,"cell viability, MTT","concentration not given, 4 h, irradiated 15 min up to 470 nm",,EC50,10300 ± 2000 nM
[Cl-].[Cl-].[Ru+2].c1ccc(-c2ccccn2)nc1.c1ccc(-c2ccccn2)nc1.c1ccc2cc3nc4c5cccnc5c5ncccc5c4nc3cc2c1,SK-MEL-28,"cell growth, SRB","red light 633 nm, 1% O2 hypoxia",,GI50,4200 nM
C1=[N+]2CCCC[N+]3=Cc4ccc5[n]4[Au-]23[n]2c1ccc2-c1nc2ccccc2nc1-5.F[P-](F)(F)(F)(F)F,NCI-H322M,NCI60 five-dose screen,,,TGI,4.37 -log M
Cc1ccncc1.[Cl-].[Cl-].[Ru+2].c1cc(-c2ccc3cccnc3n2)nc(-c2ccc3cccnc3n2)c1.c1ccc2cc3nc4c5cccnc5c5ncccc5c4nc3cc2c1,A-375,resazurin,"added: light 633 nm, 20 mW, 100 J/cm2",,EC50,1480 nM
CCN(C(=O)c1cc(F)ccc1Oc1nncnc1N1CCC2(C1)CN([C@H](CCCN(C)CCOC)C(C)C)C2)C(C)C,ASPC1,cell growth or viability,7 days,,GI50,> 10000 nM
CN1CCCNC(=O)c2cccc(c2)C(=O)NCCCN(C)CCCNc2cccc3c2C(=O)c2cccc(c2C3=O)NCCC1,SAS,"RNA-Seq, measured: MAP3K7 mRNA","1 µM, 6 h",relative to: untreated cells,log2 fold change,-1.27
CN(C)c1ccc(-n2cc(COC(=O)[C@]3(C)C=C(C(=O)OC(C)(C)C)C(=O)CC3)nn2)cc1,AP-1 reporter HEK293,"AP-1 reporter gene, luciferase reporter","10 µM, 6 h, added: PMA 6 ng/mL",relative to: PMA alone,luminescence relative to PMA,0.103
C=CC(=O)N1CCCC(n2c(=O)c3ncccc3n(Cc3ccc(Oc4ccccc4)cc3)c2=O)C1 (stereo not shown),Maver1,"cell growth or viability, MTT",72 h,,IC50,20000 nM
C[n+]1cc(/C=N/NC(=O)C(=O)N/N=C/c2cc3ccccc3[n+](C)c2)cc2ccccc21,hp2 hairpin duplex DNA,FRET melting,1 µM,,ΔTm,1.3 ± 0.3 °C
COC(=O)c1cc(NC2=NC(=O)C(=Cc3ccc(N(C)C)cc3)S2)ccc1OC(C)=O,MCF7,"GC-MS, measured: L-Glutamic acid",1 µM,relative to: DMSO,metabolite level,-1.48 fold change
CCN(CC)CC(=O)Nc1cccc(-n2cc(-c3ccc4ccc(-c5cn(-c6cccc(NC(=O)CN(CC)CC)c6)nn5)cc4c3)nn2)c1,RCC4,"PCR angiogenesis array, measured: PLG","5 x IC50, 2 h, normoxia",relative to: untreated,fold regulation,1.06
CCOc1cncc(-c2ccc(NC(=O)C3(c4ccnc(NS(=O)(=O)C5CC5)n4)CCOCC3)nc2)n1,OPM-2,"cell growth or viability, ATP luminescence",72 h,,IC50,116 nM
O=C(COC(=O)c1ccccc1Nc1cccc(C(F)(F)F)c1)Nc1cccc(C(F)(F)F)c1,RAW264.7,Western blot,"concentration not given, 72 h, unit not given, added: LPS",relative to: control,mTOR protein level,0.291
Cn1c(=O)n(C2CCC(=O)NC2=O)c2ccc(C3CCN(CC(=O)Nc4cccc(CS(=O)(=O)N5CC[C@H](Nc6cccc(-c7sc(C(=O)O)c(OCC(=O)O)c7Cl)c6)CC5(C)C)c4)CC3)cc21 (stereo partly shown),B16-F10,"HTRF, measured: phospho-STAT1 Tyr701","3.3 µM, added: IFN-γ",relative to: DMSO,fold change,5.83 and 5.56 and 6.1 and 5.59 and 5.67
Cc1ncsc1-c1ccc(C(C)NC(=O)C2CC(O)CN2C(=O)C(NC(=O)CCCCCCCCCCN2CCCC(Nc3ncc(Cl)c(Nc4ccccc4S(=O)(=O)C(C)C)n3)C2)C(C)(C)C)cc1 (stereo not shown),22Rv1,"RNA-seq, measured: ZNF200 mRNA",concentration not given,relative to: DMSO,log2 fold change,-1.41
Cc1cc(C)nc(SCC(=O)Nc2ncc(Cc3cccc(OCc4cn(Cc5ccc(C#N)cc5)nn4)c3)s2)n1,PC-3M-luc,"colony formation, colony forming",25 µM,,inhibition,50.1 ± 4.8%
O=C(Nc1nnc2c1c(-c1ccc(Cl)cc1)nc1sc(=Cc3ccco3)c(=O)n12)c1ccccc1 (mixture of isomers),COLO 205,SRB,"10 µM, NCI60 single-dose screen, colon cancer",relative to: untreated,cell growth,116%
O=C(N/N=C/c1cc[n+](CC2CC2)c2ccccc12)c1cccc(C(=O)N/N=C/c2cc[n+](CC3CC3)c3ccccc23)n1,hp2 hairpin duplex DNA,FRET melting,"1 µM, added: ds26 10 µM",,ΔTm,1.4 ± 0.3 °C
Cc1[nH][n+]([Pd-2]([Cl])([Cl])[n+]2[nH]c(C)c(CSCc3ccccc3)c2C)c(C)c1CSCc1ccccc1,U-937,cytotoxicity,,relative to: IC50 HEK293 over IC50 U-937,selectivity index,1.5
COc1ccccc1-c1ccncc1C(=O)Nc1nnc(OCc2ccc(Cl)cc2)s1,PEO1 BRCA2-mutant,,"0.5 µM, added: olaparib 0.5 µM",,colony survival,3.23%
CC(C)(C)c1cc(-c2ccc3cc4ccccc4nc3n2)nc(-c2ccc3cc4ccccc4nc3n2)c1.Cc1ccncc1.[Cl-].[Cl-].[Ru+2].c1ccc2cc3nc4c5cccnc5c5ncccc5c4nc3cc2c1,A-375,,visible light 100 J/cm2,relative to: dark EC50 over light EC50,phototherapeutic index,8
C=C1C[C@]2(C(=O)OC)C=C(C(=O)Nc3cccc(C(=O)Nc4ccc(Nc5nccc(-c6cccnc6)n5)c(C)c4)c3)C(=O)[C@H]1C2,AP1 reporter HEK293,"AP1 reporter gene, inhibitor","10 µM, 6 h, compound washed out, unit not given, added: PMA",relative to: PMA alone,reporter activity,0.153
Cc1cc(Cl)cc(-c2ccnc3cc(CN4C(=O)C5C(C4=O)C5(C)C)sc23)c1C[C@@H]1CNCCO1 (stereo partly shown),CHP-212 resistant,annexin V/PI flow cytometry,"0.3 µM, 48 h",,necrotic cells,2.04% and 1.98% and 3.09%
C=CC(=O)N1[C@H](c2ccc3c(c2)OCO3)c2[nH]c3ccccc3c2C[C@@H]1C(=O)NC,rat DRG neurons,,"0.3704 µM, 48 h, added: vincristine 40 nM",,mean neuron degeneration,43.7%
O=C(CCCCCOc1ccc2ccccc2c1)N[C@@H](CO)C[C@@H](O)c1ccc(-c2ccccc2)cc1,HeLa,"CERT activity, HPLC-MS/MS lipidomics, measured: ceramide 24","1 µM, 24 h, not cell-number normalised",,ceramide level,15200 pmol/sample and 20000 pmol/sample and 15600 pmol/sample
CC(C)c1ccc(N(C)c2ccc3c(c2)OCC[C@H]3CNc2cnccc2C(=O)O)cc1,MDA-MB-361,"cell viability, CellTiter-Glo",7 days,,IC50,≥ 10000 nM
CO[C@@H]1[C@@H](OC(N)=O)[C@@H](O)[C@H](Oc2ccc3c(O)c(NC(=O)c4ccc(O)c(CC=C(C)C)c4)c(=O)oc3c2C)OC1(C)C,DLD-1 parental,,"75 µM, replicate 2",,colony count,62
Cn1ncc2cc(-c3cncc(Cl)c3N3CCC4(CCNC4=O)CC3)ccc21,LS174T,"gene expression, microarray, measured: FAM65C mRNA","concentration not given, 24 h",relative to: untreated cells,log2 fold change,1.4
CNS(=O)(=O)Nc1nccc(Cc2c(C)c3ccc(Oc4ncccc4F)cc3oc2=O)c1F,NCI-H292,cell viability,7 days,,IC50,0.402 nM
CC(C)(C)c1cc(-c2ccc3cccnc3n2)nc(-c2ccc3cccnc3n2)c1.COc1ccncc1.[Cl-].[Cl-].[Ru+2].c1ccc2cc3nc4c5cccnc5c5ncccc5c4nc3cc2c1,A-375,resazurin,"added: light 523 nm, 20 mW, 100 J/cm2",,EC50,1430 nM
COCCCCCNc1nc(NCCCCCCN(C)C)c2cc(NC(=O)/C=C/CN(C)C)ccc2n1,MCF7,CellTiter-Glo,"1.562 µM, 24 h, unit not given",relative to: DMSO-treated cells,viability,1.05 and 1.11 and 1.03

# Repeated from above:
Structure (SMILES),tested on,assay,conditions,scale,measurement,value
COc1ccccc1-c1ccncc1C(=O)Nc1nnc(OCc2ccc(Cl)cc2)s1,PEO1 BRCA2-mutant,,"0.5 µM, added: olaparib 0.5 µM",,colony survival,3.23%
CC(C)(C)c1cc(-c2ccc3cc4ccccc4nc3n2)nc(-c2ccc3cc4ccccc4nc3n2)c1.Cc1ccncc1.[Cl-].[Cl-].[Ru+2].c1ccc2cc3nc4c5cccnc5c5ncccc5c4nc3cc2c1,A-375,,visible light 100 J/cm2,relative to: dark EC50 over light EC50,phototherapeutic index,8
C=C1C[C@]2(C(=O)OC)C=C(C(=O)Nc3cccc(C(=O)Nc4ccc(Nc5nccc(-c6cccnc6)n5)c(C)c4)c3)C(=O)[C@H]1C2,AP1 reporter HEK293,"AP1 reporter gene, inhibitor","10 µM, 6 h, compound washed out, unit not given, added: PMA",relative to: PMA alone,reporter activity,0.153
